{"data": "Experimental data from different studies", "note": "Parts stem from different laboratories: compare values within a part only."}
{"data": "Study 1", "target": "Histone acetyltransferase KAT6A, winged helix 2, GST fusion (KAT6A, Homo sapiens, UniProt Q92794, residues 85-181)", "method": "protein binding microarray", "form": "double-stranded DNA, one strand shown", "matrix": "in vitro", "concentration": "not given", "notes": "8-mer, flanks averaged, mean of 2 arrays, mostly near background", "relative to": "not given", "reading": "higher = stronger binding", "Target sequence (chain)": "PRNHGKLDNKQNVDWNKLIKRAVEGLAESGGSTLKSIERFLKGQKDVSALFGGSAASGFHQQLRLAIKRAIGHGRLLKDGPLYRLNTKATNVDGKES"}
{"Strand": "CCTACCCC", "E-score": -0.0698}
{"Strand": "GCGCCGAC", "E-score": 0.164}
{"Strand": "CCGCAATC", "E-score": 0.164}
{"Strand": "CCGTGAAC", "E-score": 0.0628}
{"Strand": "ATATGTTG", "E-score": -0.147}
{"Strand": "GGATTGTA", "E-score": -0.0303}
{"Strand": "GGGCATCA", "E-score": 0.163}
{"Strand": "AAGGTCAC", "E-score": -0.046}
{"Strand": "GCTTCACC", "E-score": 0.0729}
{"Strand": "ATTAAAAT", "E-score": 0.197}
{"Strand": "AATAGTTG", "E-score": -0.18}
{"Strand": "GGTGTATA", "E-score": -0.0783}
{"Strand": "CCTGACCC", "E-score": -0.0474}
{"Strand": "AACCGTCC", "E-score": -0.164}
{"Strand": "ATTATGAC", "E-score": -0.168}
{"Strand": "AGAATGGA", "E-score": 0.105}
{"Strand": "AGGTGGAT", "E-score": 0.0505}
{"Strand": "CACAATGA", "E-score": 0.00504}
{"Strand": "CCACGTCA", "E-score": -0.0912}
{"Strand": "CCGTGGTC", "E-score": -0.0736}
{"Strand": "ATGTGAAG", "E-score": -0.0111}
{"Strand": "ATGGGGGG", "E-score": -0.0669}
{"Strand": "CCCATTGA", "E-score": -0.155}
{"data": "Study 2", "target": "Sal-like protein 4, full length isoform B (SALL4, Homo sapiens, UniProt Q9UJQ4-2, residues 1-616)", "method": "universal PBM", "form": "double-stranded DNA, one strand shown", "matrix": "in vitro", "concentration": "not given", "notes": "8-mer, flanks averaged, mean of replicates", "reading": "higher = stronger binding", "Residues (chain)": "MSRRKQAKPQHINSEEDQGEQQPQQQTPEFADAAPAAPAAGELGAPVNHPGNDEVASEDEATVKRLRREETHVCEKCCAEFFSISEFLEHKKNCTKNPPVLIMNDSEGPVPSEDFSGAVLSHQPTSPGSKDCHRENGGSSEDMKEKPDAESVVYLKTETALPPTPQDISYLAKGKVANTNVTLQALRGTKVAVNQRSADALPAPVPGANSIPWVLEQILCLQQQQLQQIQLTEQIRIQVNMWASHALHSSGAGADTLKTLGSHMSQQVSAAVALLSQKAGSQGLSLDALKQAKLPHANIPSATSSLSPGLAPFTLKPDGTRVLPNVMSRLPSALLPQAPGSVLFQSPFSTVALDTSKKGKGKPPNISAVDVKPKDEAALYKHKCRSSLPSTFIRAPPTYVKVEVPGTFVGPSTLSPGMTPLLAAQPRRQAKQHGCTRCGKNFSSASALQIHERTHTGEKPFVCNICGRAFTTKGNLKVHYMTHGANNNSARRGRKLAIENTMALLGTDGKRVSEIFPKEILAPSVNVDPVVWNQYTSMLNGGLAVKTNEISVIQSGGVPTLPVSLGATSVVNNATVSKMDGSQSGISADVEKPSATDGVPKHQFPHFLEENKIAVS"}
{"Strand": "AAAGCACG", "E-score": -0.0653}
{"Strand": "CCATTCCC", "E-score": -0.249}
{"Strand": "AAGAGTAC", "E-score": 0.0365}
{"Strand": "CCGTGGCC", "E-score": -0.392}
{"Strand": "AAAGCGGT", "E-score": -0.11}
{"Strand": "AAAGGTGA", "E-score": 0.123}
{"Strand": "GAATGGTA", "E-score": 0.217}
{"Strand": "CCTGAAGG", "E-score": -0.149}
{"Strand": "ATCGTTAG", "E-score": 0.174}
{"Strand": "GCTAGGGA", "E-score": -0.177}
{"Strand": "CACCGATC", "E-score": -0.293}
{"Strand": "AACTTTCC", "E-score": -0.0563}
{"Strand": "ATGCCGAG", "E-score": -0.0977}
{"Strand": "ATGCTAAG", "E-score": 0.0717}
{"Strand": "CGGCTTAC", "E-score": -0.183}
{"Strand": "CTCGCTGC", "E-score": -0.0947}
{"Strand": "CAGCGAGC", "E-score": -0.0466}
{"Strand": "ACTGTTCC", "E-score": -0.0901}
{"Strand": "GTAAGGAA", "E-score": 0.0596}
{"Strand": "ACCGAAAT", "E-score": 0.0965}
{"Strand": "AGCGACAG", "E-score": -0.108}
{"Strand": "ACTCAAAA", "E-score": 0.138}
{"Strand": "TATGCAAA", "E-score": 0.144}
{"data": "Study 3", "target": "RING finger protein unkempt homolog, zinc fingers 1-6, GST-SBP tag (UNK, Homo sapiens, UniProt Q9C0B0, residues 30-357)", "method": "RNA Bind-n-Seq", "form": "RNA", "matrix": "in vitro", "concentration": "not given", "notes": "RNA with constant flanks, ends assumed", "relative to": "input RNA pool", "reading": "higher = stronger binding", "shared flanks, not repeated": "GGGAGUUCUACAGUCCGACGAUC … CAACAGAGGAUUGAGCAUCA", "Residues (chain)": "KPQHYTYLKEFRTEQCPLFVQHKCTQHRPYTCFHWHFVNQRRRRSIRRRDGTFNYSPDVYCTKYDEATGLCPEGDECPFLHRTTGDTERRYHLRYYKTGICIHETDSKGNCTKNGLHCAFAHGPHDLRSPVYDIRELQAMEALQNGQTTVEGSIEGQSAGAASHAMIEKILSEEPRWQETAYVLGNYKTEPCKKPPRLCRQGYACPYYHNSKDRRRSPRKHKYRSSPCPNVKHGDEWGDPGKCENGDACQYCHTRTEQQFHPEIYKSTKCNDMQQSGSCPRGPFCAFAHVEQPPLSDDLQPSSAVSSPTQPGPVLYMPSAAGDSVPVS"}
{"Strand": "UUUAAGACUUUAUAUUGUGUUUCAAACAAAGAAAGCCCUAACCAAAACAAUACUACCCACUCCGAUAUUGCUGCAGUUCAAGGUUUUUCAGUCAUCUUGGACUUCCUGUAUUCUGGGAAC", "bound/input enrichment [ratio]": 0.252}
{"Strand": "GGGAGCAUUGGUGAAAUAGAAUCCUGCAAACUUGUGAGAGACAAAAUUACAGGACAGAGUUCCGGGUAUGGAUUUGUUAACUAUAUUGAUCCAAAGGAUGCAGAGAAAGCCAUCAACACU", "bound/input enrichment [ratio]": 0.233}
{"Strand": "GAACAGUUUGUCCAGCUCCUUUCCGUAUCCUGUUGAACAUAUCAGGCAAACAGCGCCCAUCUCCGAACCUGCUCCCAGCAUUUACACUGUGGGAAUAAAGGUAGGCAGGGCUGUGCUGGG", "bound/input enrichment [ratio]": 0.0709}
{"Strand": "GGCUGUGGAAUUAGUCCAGAGAUUCAUUGCGAUGGUGGCCACACCUUCAGACCGCCUUCUGUCCGUAACUACUGCAUCUGUGACAUUACAAAUGGCAAUCACAGUGUGGAUGAGAUGCAA", "bound/input enrichment [ratio]": 0.0957}
{"Strand": "GUAUAUCAAGGAGUGAAGAAACACGGCUUCUUACAGCCUCAUUUUUUGGCAGAACAAGAUACCGUUAUCAUUACCUAUGAUGUUCUUCGUUCAGAACUAAACUAUGUCAAUAUCCCACAU", "bound/input enrichment [ratio]": 0.047}
{"Strand": "GAACUUCAAGCUUCACAGAUAUUACAGAACAAGAAACAUAAAAAUUCUCAAUUAGAUAAAAACCGUGAAGUUUAUCAGGAAGUUCAAGCUAUGUUUGAUACACUUGGUAUACCCAAGUCA", "bound/input enrichment [ratio]": 0.234}
{"Strand": "AAGUUAGAGAUAAUGUCUACUGGAAAUUUUACCUUUGAGUCAAGUUUUGUGUCAGUGCUUCCGCAUUUUUGAGAAUGUGUUUGAUAUCACAGUGUUUGUAAAUUCGAUGAAAAUGUAUUU", "bound/input enrichment [ratio]": 0.265}
{"Strand": "GAUACAAAAAGGCUUUCCAAAGAGGAAAAGGGUCGCAGCAGUUGUGGUAGAAAUUUCUGGGUCCGUGGACUCUCUUCUACAACCAGAGCUACAGAUUUGAAGAAUCUUUUCAGCAAAUAU", "bound/input enrichment [ratio]": 0.171}
{"data": "Study 4", "target": "RNA binding protein fox-1 homolog 2, RRM domain, GST-SBP tag (RBFOX2, Homo sapiens, UniProt O43251-10, residues 100-194)", "method": "RNA Bind-n-Seq", "form": "RNA", "matrix": "in vitro", "concentration": "365 nM", "notes": "natural RNA segment, single round, ends assumed", "relative to": "no-protein control", "reading": "higher = stronger binding", "shared flanks, not repeated": "GGGAGUUCUACAGUCCGACGAUC … UGGAAUUCUCGGGUGCCAA", "Residues (chain)": "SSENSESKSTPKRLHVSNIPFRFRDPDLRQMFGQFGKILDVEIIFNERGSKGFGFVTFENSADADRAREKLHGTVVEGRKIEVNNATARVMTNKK"}
{"Strand": "UCUUACAACCAAGGUAGUUUGUAUCAUUUUCAAAAGUACACAUUAUUAGGGUCUAGUUGCCCCUGGUCCUUAGCUUGCUCAGCUGCAAAAUAAGCGUGCUAAAUUAAAUU", "RBNS enrichment (R)": 0.239}
{"Strand": "GGGACCUUGUGGGCGUGGGACACCACUUCCUGCCGAGCGAGCCCACAAAAUGGAAUGUAGAGGAUGUCUAUGAGUUCAUCCGCUCUCUGCCAGGCUGCCAGGAGAUCGCG", "RBNS enrichment (R)": 0.524}
{"Strand": "GGGUCUCCAGUCCUGUUUGCCUGAAUGCUCUGGGAUCUAUGCCUAGAGCAAGCCUGAAGACGGCCCCUGGAAGACAAACCCAAGCUGAGGGAAUCCAGGCCCAGCAAGAG", "RBNS enrichment (R)": 0.438}
{"Strand": "UUGCUAUGGCACUUUUCUAUAACCUUUUCAUUCCUGUGUACAGUAGCUUAAAAUUGCAGUGAUUGAGCAUAACCUACUUGUUUGUAUAAAUUAUUGAAAUCCAUUUGCAC", "RBNS enrichment (R)": 0.972}
{"Strand": "UGUAUUUUAAUAUUUGUUAUUCUCUCAUGAAUAGAAAUUUAUGUAGAAGCAAACAAAAUACUUUUACCCACUUAAAAAGAGAAUAUAACAUUUUAUGUCACUAUAAUCUU", "RBNS enrichment (R)": 0.352}
{"Strand": "AUUGUUUUGGUUUUGGUUUUGAUGGGGACUGGUCUUUAAGACUGUCAUUUGAUAUUUUUUUACAUCAGAGUUUAUCCCACAGUCCCCCAUCUCUCCCUCCUCCUUCCCUC", "RBNS enrichment (R)": 0.492}
{"Strand": "ACAAGACCCUUGGGAGUUUUAAUUCUGUUUUGUACUUGCCCUGUGGGGCCUCCACUGCUUUUCUAUGGGAGACACUCUUAAUUUAACAGAUGAGAAUAUUUUGAAACUCU", "RBNS enrichment (R)": 0.763}
{"Strand": "CUUGGGCUGCUACCGCCGCCACCACCGUCACCACCAUCUGUCCAGUGCUACUGUCUGUGCCCUCCUAGGCCACACAGCCUGAGGGAGCUUGCAUGGGUCUGCCCGUGUCG", "RBNS enrichment (R)": 0.328}
{"note": "Some of these lines once more (study 1):"}
{"Strand": "GCTTCACC", "E-score": 0.0729}
{"Strand": "ATTAAAAT", "E-score": 0.197}
{"Strand": "AATAGTTG", "E-score": -0.18}
{"Strand": "GGTGTATA", "E-score": -0.0783}
{"Strand": "CCTGACCC", "E-score": -0.0474}
{"Strand": "AACCGTCC", "E-score": -0.164}
{"Strand": "ATTATGAC", "E-score": -0.168}
